Experimental data from different studies.
A part holds a random share of what one study measured. Several values in a cell are separate wells, animals, samples, runs or records.
UniProt Q9H2G2, sequence (whole entry, looked up): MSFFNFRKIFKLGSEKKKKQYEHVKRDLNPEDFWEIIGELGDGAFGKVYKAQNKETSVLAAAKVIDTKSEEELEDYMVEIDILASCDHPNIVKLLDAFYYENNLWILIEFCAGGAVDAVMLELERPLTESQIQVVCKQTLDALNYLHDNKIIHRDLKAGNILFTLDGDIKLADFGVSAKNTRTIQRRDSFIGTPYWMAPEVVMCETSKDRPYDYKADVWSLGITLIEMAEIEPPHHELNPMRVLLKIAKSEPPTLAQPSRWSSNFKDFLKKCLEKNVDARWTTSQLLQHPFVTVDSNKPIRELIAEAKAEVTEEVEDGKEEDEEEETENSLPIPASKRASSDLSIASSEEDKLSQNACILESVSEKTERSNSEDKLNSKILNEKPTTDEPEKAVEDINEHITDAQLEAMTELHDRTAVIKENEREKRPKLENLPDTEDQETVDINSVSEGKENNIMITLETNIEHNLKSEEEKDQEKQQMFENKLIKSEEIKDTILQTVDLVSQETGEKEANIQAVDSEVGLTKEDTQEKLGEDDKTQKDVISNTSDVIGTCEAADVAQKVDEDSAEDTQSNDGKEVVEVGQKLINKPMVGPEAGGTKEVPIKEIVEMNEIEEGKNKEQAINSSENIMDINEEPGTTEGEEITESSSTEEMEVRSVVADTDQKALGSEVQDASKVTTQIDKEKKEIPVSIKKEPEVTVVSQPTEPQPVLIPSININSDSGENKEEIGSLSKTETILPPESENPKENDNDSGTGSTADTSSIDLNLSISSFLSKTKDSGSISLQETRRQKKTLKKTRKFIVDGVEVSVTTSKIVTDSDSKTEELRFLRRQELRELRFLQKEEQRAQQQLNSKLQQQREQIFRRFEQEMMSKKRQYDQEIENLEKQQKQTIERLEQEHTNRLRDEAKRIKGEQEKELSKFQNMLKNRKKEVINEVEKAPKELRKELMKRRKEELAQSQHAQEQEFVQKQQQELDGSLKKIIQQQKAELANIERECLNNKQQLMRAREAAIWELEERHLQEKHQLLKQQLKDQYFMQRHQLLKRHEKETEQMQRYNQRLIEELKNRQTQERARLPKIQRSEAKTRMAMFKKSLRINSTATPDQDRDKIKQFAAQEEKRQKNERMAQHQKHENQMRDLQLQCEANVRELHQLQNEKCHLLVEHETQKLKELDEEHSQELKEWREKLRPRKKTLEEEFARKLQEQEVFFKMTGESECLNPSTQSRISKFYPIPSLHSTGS
UniProt Q15835, sequence (whole entry, looked up): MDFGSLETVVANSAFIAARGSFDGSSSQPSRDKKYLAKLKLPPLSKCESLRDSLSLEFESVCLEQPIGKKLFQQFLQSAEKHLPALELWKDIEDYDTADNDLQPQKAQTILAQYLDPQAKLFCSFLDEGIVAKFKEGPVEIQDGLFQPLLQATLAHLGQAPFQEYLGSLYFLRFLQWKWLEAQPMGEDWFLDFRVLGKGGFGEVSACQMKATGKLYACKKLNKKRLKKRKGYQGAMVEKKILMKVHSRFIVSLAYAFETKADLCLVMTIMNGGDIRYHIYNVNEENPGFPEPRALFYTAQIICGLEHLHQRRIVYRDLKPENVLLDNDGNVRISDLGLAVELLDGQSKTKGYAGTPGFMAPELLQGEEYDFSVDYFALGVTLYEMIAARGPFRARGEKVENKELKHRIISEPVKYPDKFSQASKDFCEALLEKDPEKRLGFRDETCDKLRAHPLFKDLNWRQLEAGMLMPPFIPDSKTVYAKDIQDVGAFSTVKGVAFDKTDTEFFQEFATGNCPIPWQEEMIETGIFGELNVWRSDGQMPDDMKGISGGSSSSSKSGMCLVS
UniProt Q16512, sequence (whole entry, looked up): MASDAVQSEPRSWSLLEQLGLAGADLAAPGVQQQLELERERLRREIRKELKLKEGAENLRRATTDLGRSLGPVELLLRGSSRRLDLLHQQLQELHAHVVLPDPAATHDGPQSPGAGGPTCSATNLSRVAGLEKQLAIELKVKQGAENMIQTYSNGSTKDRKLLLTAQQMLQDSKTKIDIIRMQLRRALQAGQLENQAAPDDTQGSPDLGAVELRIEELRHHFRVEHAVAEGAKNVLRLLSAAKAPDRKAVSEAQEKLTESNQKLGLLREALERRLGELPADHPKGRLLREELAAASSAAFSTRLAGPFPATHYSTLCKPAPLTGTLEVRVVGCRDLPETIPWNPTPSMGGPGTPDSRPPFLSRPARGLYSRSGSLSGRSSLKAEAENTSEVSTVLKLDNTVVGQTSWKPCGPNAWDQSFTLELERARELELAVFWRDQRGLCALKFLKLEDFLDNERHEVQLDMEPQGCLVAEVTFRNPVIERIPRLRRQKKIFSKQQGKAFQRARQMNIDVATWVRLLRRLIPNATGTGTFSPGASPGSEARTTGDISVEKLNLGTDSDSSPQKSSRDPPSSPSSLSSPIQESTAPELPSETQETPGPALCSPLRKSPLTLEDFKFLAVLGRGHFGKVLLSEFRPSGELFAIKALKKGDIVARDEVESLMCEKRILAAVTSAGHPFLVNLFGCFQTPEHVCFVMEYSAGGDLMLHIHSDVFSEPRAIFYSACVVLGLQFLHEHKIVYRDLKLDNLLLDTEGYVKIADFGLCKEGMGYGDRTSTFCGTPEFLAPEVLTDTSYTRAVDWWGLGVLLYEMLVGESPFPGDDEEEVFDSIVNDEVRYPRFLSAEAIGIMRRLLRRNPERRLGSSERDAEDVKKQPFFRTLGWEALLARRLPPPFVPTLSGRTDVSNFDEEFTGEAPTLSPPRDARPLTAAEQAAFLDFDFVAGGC
UniProt Q8IWQ3, sequence (whole entry, looked up): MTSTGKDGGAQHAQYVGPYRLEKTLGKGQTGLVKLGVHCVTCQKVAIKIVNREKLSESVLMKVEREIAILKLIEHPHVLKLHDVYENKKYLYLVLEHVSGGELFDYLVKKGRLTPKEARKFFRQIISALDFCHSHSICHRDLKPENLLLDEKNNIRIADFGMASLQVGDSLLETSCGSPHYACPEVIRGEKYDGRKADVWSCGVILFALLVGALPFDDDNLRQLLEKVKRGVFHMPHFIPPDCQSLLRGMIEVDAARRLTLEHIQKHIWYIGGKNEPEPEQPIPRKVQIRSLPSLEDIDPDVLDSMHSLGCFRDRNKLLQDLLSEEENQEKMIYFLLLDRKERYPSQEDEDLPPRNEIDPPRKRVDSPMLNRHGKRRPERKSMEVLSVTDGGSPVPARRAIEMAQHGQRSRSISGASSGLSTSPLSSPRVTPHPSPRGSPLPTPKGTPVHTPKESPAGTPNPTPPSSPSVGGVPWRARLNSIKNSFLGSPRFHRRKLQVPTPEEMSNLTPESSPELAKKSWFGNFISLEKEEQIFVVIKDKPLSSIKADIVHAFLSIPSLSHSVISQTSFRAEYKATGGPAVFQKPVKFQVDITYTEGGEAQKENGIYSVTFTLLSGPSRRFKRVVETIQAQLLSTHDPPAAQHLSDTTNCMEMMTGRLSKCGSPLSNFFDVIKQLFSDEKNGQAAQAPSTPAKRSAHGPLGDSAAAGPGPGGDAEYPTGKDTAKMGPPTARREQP
UniProt Q96NX5, sequence (whole entry, looked up): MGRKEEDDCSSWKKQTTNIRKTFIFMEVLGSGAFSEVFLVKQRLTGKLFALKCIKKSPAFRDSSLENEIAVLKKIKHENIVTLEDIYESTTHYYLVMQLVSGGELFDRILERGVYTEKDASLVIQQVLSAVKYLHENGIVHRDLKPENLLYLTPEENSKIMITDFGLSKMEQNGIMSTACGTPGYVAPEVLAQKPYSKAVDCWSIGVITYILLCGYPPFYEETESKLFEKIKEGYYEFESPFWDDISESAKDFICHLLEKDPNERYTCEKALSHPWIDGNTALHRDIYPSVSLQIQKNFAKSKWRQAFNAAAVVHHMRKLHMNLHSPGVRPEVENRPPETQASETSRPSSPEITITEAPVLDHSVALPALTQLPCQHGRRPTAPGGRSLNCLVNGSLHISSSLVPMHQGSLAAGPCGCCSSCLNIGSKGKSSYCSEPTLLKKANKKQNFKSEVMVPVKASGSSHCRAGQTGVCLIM
UniProt P31749, sequence (whole entry, looked up): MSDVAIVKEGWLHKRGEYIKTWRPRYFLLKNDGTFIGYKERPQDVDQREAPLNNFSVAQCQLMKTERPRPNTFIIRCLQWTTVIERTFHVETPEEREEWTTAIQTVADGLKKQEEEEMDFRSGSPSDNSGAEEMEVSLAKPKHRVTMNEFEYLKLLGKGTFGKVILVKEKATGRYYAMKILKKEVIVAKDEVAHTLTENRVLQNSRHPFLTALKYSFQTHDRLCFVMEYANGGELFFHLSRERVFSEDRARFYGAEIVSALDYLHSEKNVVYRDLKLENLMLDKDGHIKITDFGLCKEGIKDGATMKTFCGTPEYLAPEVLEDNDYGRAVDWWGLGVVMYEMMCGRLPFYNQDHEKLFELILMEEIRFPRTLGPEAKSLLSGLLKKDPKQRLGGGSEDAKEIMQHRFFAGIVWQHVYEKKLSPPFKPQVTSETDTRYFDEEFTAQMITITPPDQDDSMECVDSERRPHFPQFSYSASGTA

Series 1 — effect on: enzyme activity; action: inhibitor; concentration: 10 µM
Target: Calcium/calmodulin-dependent protein kinase type II subunit alpha (CAMK2A, Homo sapiens, UniProt Q9UQM7)
UniProt Q9UQM7, sequence (whole entry, looked up): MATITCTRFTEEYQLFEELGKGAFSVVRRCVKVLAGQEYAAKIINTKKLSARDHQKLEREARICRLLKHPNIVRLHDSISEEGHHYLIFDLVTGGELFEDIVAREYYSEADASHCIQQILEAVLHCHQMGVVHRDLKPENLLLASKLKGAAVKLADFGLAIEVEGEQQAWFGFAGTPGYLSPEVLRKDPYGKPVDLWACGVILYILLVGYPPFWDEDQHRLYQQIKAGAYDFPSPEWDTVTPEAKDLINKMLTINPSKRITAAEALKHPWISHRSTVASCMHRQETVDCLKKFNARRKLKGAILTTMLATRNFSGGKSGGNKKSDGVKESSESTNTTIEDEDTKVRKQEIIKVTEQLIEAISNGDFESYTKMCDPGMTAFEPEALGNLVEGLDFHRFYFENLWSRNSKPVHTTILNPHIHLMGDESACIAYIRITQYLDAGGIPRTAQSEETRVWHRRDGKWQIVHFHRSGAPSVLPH
Structure (SMILES) | inhibition
O=c1c(-c2ccccc2)coc2ccccc12 | 18%
CCCc1c2oc(C(=O)O)cc(=O)c2cc2c(=O)cc(C(=O)O)n(CC)c12 | 1%
CC(=O)c1ccccc1O | 19%
CO[C@@]1(NC(=O)[C@H](C(=O)O)c2ccc(O)cc2)C(=O)N2C(C(=O)O)=C(CSc3nnnn3C)CO[C@@H]21 | -9%
Nc1ccncc1O | 23%
CCCCC(CC)CCC(=O)O (centres unmarked) | 22%
C[C@H]1O[C@@H](O[C@H]2CC[C@@]3(C)[C@@H](CC[C@]4(C)[C@@H]3C=CC3=C5CC(C)(C)CC[C@]5(CO)[C@H](O)C[C@]34C)[C@]2(C)CO)[C@H](O)[C@@H](O)[C@H]1O | 11%
CC1=C(/C=C/C(C)=C\C=C\C(C)=C\C(=O)O)C(C)(C)CCC1 | -16%
CC(=O)OCC(CCn1cnc2cnc(N)nc21)COC(C)=O | -10%

Series 2 — cell line: A-375; concentration: 100 µM; time: 18 h
Compound | viability
COc1cc(NS(C)(=O)=O)ccc1Nc1c2ccccc2nc2ccccc12 | 16.1%
NS(=O)(=O)c1cc2c(cc1Cl)N=C(CSCc1ccccc1)NS2(=O)=O | 82.4%
CC(=O)OCC(=O)[C@@]1(O)CC[C@H]2[C@@H]3CCC4=CC(=O)C=C[C@]4(C)[C@H]3[C@@H](O)C[C@@]21C | 97.6%
CCn1cc(C(=O)O)c(=O)c2cc(F)c(N3CCNCC3)nc21 | 104% and 92.5%
CCCCC(CC)COC(=O)CC(C(=O)OCC(CC)CCCC)S(=O)(=O)O (centres unmarked) | 17.3%
C[C@@H]1O[C@@H](O[C@H]2[C@H](Oc3cc(O)c4c(c3)O[C@H](c3ccc(O)cc3)CC4=O)O[C@H](CO)[C@@H](O)[C@@H]2O)[C@H](O)[C@H](O)[C@H]1O | 89.4%
COc1ccc(NS(=O)(=O)c2ccc(N)cc2)nn1 | 103%
O=C(O)CCCC[C@@H]1CCSS1 | 106%
CC(=O)Oc1ccc(C(c2ccc(OC(C)=O)cc2)c2ccccn2)cc1 | 7.97%
Nc1nc(CC(=O)Nc2ccc(CCNC[C@H](O)c3ccccc3)cc2)cs1 | 98.7%
Cc1cccc(CN2CCN(C(c3ccccc3)c3ccc(Cl)cc3)CC2)c1 (centres unmarked) | 81.4%
CCOC(=O)C1=C[C@]2(CC)CCCN3CCc4c(n1c1ccccc41)[C@@H]32 | 44.8%

Series 3 — effect on: cell-free assay; technique: competition with immobilised ligand; concentration: 1 µM
SMILES: O=C(Nc1cccnn1)N1CCC(=Cc2cccc(Oc3ccc(C(F)(F)F)cn3)c2)CC1
target | remaining binding [%]
Ribosomal protein S6 kinase alpha-6, N-terminal kinase domain (RPS6KA6, Homo sapiens, UniProt Q9UK32) | 100
GRK1 (Homo sapiens, UniProt Q15835) | 89
ULK1 (Homo sapiens, UniProt O75385) | 84
SLK (Homo sapiens, UniProt Q9H2G2) | 74
PIK3CA (Homo sapiens, UniProt P42336, I800L) | 100
NUAK1 (Homo sapiens, UniProt O60285) | 86
BRSK2 (Homo sapiens, UniProt Q8IWQ3) | 90
EIF2AK1 (Homo sapiens, UniProt Q9BQI3) | 100
CAMK1G (Homo sapiens, UniProt Q96NX5) | 95
FGFR3 (Homo sapiens, UniProt P22607) | 83
LRRK2 (Homo sapiens, UniProt Q5S007) | 99
MUSK (Homo sapiens, UniProt O15146) | 100
MAPK1 (Homo sapiens, UniProt P28482) | 92

Series 4 — effect on: enzyme activity; action: inhibitor; concentration: 0.5 µM; relative to: control
Structure (SMILES): CS(=O)(=O)CCNCc1ccc(-c2ccc3ncnc(Nc4ccc(OCc5cccc(F)c5)c(Cl)c4)c3c2)o1
target | remaining activity [%]
AKT1 (Homo sapiens, UniProt P31749) | 95.6
STK25 (Homo sapiens, UniProt O00506) | 102
SRC (Homo sapiens, UniProt P12931) | 102
PRKX (Homo sapiens, UniProt P51817) | 111
FYN (Homo sapiens, UniProt P06241) | 99.4
PKN1 (Homo sapiens, UniProt Q16512) | 106
ITK (Homo sapiens, UniProt Q08881) | 98.3
HIPK1 (Homo sapiens, UniProt Q86Z02) | 97.1
FLT4 (Homo sapiens, UniProt P35916) | 93.3
NLK (Homo sapiens, UniProt Q9UBE8) | 108
FER (Homo sapiens, UniProt P16591) | 94.6
PASK (Homo sapiens, UniProt Q96RG2) | 101
NEK11 (Homo sapiens, UniProt Q8NG66) | 107
LIM domain kinase 1 (LIMK1, Homo sapiens, UniProt P53667) | 95.2
MATK (Homo sapiens, UniProt P42679) | 75.9
Cyclin-dependent kinase 3, with cyclin E (CDK3, Homo sapiens, UniProt Q00526) | 94.6
FGR (Homo sapiens, UniProt P09769) | 84.8
ALK (Homo sapiens, UniProt Q9UM73) | 104
Insulin receptor (INSR, Homo sapiens, UniProt P06213) | 105

Excerpt of the above (series 4):
target | remaining activity [%]
NEK11 (Homo sapiens, UniProt Q8NG66) | 107
ITK (Homo sapiens, UniProt Q08881) | 98.3
SRC (Homo sapiens, UniProt P12931) | 102
PKN1 (Homo sapiens, UniProt Q16512) | 106
FER (Homo sapiens, UniProt P16591) | 94.6
NLK (Homo sapiens, UniProt Q9UBE8) | 108
PASK (Homo sapiens, UniProt Q96RG2) | 101
ALK (Homo sapiens, UniProt Q9UM73) | 104
